Experimental data of several laboratories.
Each numbered part is a random draw from the data of one study; scales do not carry over between parts.
Chain of UniProt P41143 (whole entry, looked up): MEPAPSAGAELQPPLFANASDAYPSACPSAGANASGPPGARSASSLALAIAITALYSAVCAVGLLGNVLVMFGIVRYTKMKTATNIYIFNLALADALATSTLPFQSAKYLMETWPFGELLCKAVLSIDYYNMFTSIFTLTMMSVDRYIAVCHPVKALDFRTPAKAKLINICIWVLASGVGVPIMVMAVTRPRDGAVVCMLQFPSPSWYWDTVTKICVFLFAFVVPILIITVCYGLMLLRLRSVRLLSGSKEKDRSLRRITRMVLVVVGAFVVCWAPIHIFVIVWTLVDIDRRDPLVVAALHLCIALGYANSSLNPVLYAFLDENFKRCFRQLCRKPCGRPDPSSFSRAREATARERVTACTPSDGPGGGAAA
Chain of UniProt Q9UKT9 (whole entry, looked up): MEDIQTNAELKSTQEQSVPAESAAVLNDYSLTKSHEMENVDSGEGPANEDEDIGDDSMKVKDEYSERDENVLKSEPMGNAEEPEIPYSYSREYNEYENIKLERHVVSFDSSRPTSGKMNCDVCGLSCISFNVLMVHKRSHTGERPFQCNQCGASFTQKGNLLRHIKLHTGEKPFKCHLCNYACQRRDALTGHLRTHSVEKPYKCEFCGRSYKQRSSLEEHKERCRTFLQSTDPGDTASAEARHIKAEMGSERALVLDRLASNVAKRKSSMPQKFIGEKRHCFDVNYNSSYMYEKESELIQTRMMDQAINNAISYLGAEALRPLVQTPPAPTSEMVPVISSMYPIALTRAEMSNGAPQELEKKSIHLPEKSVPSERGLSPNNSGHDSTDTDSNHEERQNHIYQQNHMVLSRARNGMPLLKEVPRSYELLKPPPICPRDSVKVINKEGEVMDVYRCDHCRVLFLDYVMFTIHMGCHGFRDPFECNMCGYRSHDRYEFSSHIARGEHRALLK
Chain of UniProt P11229 (whole entry, looked up): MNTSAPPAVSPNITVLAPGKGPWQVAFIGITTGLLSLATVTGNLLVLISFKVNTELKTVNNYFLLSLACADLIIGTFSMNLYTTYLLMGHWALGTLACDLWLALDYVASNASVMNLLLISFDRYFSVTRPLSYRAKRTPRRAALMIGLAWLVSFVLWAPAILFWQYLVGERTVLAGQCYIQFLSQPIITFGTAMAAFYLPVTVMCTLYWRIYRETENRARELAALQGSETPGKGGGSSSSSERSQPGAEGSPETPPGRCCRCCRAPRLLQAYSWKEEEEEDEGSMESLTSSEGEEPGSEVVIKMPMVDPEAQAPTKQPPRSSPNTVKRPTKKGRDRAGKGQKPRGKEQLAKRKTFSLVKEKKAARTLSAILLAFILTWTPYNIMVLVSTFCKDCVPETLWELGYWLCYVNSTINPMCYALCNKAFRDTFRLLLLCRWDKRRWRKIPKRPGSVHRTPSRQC
Chain of UniProt P28223 (whole entry, looked up): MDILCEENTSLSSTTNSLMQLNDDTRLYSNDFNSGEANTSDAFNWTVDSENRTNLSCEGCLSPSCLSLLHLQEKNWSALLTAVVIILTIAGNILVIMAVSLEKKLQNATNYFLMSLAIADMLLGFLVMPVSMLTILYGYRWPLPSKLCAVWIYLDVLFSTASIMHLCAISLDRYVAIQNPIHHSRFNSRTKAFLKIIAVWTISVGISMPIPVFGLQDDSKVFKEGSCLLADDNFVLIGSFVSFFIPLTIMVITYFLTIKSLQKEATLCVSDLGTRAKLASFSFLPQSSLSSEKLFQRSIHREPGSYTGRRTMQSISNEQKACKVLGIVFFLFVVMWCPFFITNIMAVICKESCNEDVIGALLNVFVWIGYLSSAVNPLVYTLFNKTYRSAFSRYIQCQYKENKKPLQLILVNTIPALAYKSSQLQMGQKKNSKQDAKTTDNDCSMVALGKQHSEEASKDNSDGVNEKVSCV
Chain of UniProt P28335 (whole entry, looked up): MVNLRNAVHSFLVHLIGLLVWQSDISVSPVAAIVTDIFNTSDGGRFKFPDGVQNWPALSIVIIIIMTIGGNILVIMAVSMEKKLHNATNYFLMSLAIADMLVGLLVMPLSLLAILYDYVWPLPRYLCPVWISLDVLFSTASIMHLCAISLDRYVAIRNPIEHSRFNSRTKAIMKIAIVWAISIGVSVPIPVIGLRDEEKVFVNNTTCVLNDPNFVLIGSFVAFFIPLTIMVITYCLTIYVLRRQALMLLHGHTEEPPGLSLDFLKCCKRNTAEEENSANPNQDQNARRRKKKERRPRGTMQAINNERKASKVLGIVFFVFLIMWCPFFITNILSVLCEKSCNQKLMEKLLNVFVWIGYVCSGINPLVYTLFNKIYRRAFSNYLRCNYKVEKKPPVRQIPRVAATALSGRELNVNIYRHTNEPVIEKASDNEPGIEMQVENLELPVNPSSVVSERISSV

Block 1 — read-out: binding; method: radioligand binding; concentration: 10 µM
SMILES: CC(=O)C1=C(C)N(c2cccc(C(F)(F)F)c2)C(=O)N[C@@H]1c1ccc(C#N)nc1
It gave -0.427% for inhibition (HTR2A (Homo sapiens, UniProt P28223)).
OPRD1 (Homo sapiens, UniProt P41143) — inhibition: -6.02%.
It gave -4.65% for inhibition (CHRM1 (Homo sapiens, UniProt P11229)).
It gave -2.88% for inhibition (HTR2C (Homo sapiens, UniProt P28335)).

Block 2 — cell line: A-375; concentration: 100 µM; time: 36 h
The viability of `O=C(O)c1nn(Cc2ccc(Cl)cc2Cl)c2ccccc12` is reported as 87.7%.
`Cc1ccc(NC(=O)C2(c3ccc4c(c3)OC(F)(F)O4)CC2)nc1-c1cccc(C(=O)O)c1` gave a viability of 96%.
`COc1ccc(CN(C(=O)[C@@H](N)Cc2c(C)cc(C(N)=O)cc2C)[C@@H](C)c2nc(-c3ccccc3)c[nH]2)cc1C(=O)O` gave a viability of 92.3%.
For `c1ccc(NNc2ccccc2)cc1`, the viability was 37%.
The viability of `C[C@@H](CO)NC(=O)[C@@H]1C=C2c3cccc4[nH]cc(c34)C[C@H]2N(C)C1` is reported as 115%.
For `Oc1cc(Cl)ccc1Oc1ccc(Cl)cc1Cl`, the viability was -1.04%.
`C[C@H]1CNCCc2ccc(Cl)cc21` gave a viability of 110%.
With `CCCCC(C#N)(Cn1cncn1)c1ccc(Cl)cc1` (centres unmarked) the viability was 52.3%.
`CN[C@H]1C[C@@H](N)[C@H](O)[C@@H](O[C@@H]2O[C@H](CO)[C@H](O)[C@@H]3OC4(O[C@H]23)O[C@H]([C@@H](N)CO)[C@H](O)[C@H](O)[C@H]4O)[C@@H]1O` (some centres unmarked) gave a viability of 110%.
For `CN1C[C@H](C(=O)N[C@]2(C)O[C@@]3(O)[C@@H]4CCCN4C(=O)[C@H](Cc4ccccc4)N3C2=O)C=C2c3cccc4[nH]cc(c34)C[C@H]21`, the viability was 38.8%.
The viability of `CN(C(=O)/C=C/c1ccoc1)[C@@H]1CC[C@@]2(O)[C@H]3Cc4ccc(O)c5c4[C@@]2(CCN3CC2CC2)[C@H]1O5` is reported as 102%.
`CCN(CC)C(C)C(=O)c1ccccc1` (centres unmarked) has a viability of 93.3%.

Block 3 — mode: degrader; method: HiBiT; cells: HEK293; time: 6 h
SMILES: O=C1CCC(N2Cc3c(ccc4c3OCC43CCN(Cc4ccccc4)CC3)C2=O)C(=O)N1 (centres unmarked)
SALL4: Sal-like protein 4 (SALL4, Homo sapiens, UniProt Q9UJQ4)
Chain of UniProt Q9UJQ4 (whole entry, looked up): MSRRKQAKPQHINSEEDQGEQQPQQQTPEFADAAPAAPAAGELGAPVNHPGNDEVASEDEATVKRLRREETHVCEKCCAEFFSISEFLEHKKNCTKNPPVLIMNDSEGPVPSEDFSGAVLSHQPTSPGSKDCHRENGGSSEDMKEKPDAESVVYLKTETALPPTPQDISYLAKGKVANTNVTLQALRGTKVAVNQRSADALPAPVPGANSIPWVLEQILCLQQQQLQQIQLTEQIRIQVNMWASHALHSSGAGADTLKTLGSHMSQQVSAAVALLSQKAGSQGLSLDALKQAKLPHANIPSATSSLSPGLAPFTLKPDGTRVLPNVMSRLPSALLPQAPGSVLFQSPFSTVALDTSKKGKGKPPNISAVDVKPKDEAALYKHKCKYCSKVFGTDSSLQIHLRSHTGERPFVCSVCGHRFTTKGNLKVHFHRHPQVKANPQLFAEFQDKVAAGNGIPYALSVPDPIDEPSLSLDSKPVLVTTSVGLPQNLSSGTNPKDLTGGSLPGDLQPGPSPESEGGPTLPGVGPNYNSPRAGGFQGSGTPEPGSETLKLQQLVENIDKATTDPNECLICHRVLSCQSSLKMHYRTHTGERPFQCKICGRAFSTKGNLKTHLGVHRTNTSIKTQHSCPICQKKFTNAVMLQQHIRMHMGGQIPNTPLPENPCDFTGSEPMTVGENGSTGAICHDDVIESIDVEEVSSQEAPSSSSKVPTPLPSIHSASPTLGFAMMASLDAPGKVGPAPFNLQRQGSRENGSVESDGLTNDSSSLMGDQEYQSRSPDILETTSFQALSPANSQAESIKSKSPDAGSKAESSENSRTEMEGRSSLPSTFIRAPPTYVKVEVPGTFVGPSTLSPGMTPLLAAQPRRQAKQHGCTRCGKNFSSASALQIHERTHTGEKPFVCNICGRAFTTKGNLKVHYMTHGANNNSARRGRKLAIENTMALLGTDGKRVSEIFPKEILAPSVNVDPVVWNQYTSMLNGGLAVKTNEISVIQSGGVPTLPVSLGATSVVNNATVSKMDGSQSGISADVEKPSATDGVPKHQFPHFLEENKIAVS
GSPT1: Eukaryotic peptide chain release factor GTP-binding subunit ERF3A (GSPT1, Homo sapiens, UniProt P15170)
Chain of UniProt P15170 (whole entry, looked up): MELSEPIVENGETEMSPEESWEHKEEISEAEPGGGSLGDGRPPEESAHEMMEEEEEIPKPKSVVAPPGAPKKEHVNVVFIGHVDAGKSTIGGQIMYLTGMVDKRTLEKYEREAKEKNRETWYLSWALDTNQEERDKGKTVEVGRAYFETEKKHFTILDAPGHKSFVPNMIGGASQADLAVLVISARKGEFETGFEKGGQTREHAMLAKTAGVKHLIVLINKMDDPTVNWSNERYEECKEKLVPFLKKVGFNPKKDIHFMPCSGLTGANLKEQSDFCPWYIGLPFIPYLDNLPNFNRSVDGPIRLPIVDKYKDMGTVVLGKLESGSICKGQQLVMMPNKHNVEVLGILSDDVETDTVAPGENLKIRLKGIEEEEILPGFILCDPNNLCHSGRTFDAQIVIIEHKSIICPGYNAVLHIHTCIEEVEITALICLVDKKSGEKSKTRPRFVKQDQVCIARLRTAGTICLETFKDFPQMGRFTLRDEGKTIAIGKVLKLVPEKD
CSNK1A1: Casein kinase I isoform alpha (CSNK1A1, Homo sapiens, UniProt P48729)
Chain of UniProt P48729 (whole entry, looked up): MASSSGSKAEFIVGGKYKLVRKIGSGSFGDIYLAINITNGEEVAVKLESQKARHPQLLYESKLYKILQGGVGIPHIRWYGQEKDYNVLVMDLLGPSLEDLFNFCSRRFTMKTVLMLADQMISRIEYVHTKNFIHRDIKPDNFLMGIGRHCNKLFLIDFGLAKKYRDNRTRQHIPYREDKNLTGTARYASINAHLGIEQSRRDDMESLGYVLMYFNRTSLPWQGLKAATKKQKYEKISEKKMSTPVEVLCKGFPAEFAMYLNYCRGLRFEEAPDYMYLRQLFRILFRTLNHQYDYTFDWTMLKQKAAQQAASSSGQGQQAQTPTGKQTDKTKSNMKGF
DNA-binding protein Ikaros: DNA-binding protein Ikaros (Homo sapiens, UniProt Q13422)
Chain of UniProt Q13422 (whole entry, looked up): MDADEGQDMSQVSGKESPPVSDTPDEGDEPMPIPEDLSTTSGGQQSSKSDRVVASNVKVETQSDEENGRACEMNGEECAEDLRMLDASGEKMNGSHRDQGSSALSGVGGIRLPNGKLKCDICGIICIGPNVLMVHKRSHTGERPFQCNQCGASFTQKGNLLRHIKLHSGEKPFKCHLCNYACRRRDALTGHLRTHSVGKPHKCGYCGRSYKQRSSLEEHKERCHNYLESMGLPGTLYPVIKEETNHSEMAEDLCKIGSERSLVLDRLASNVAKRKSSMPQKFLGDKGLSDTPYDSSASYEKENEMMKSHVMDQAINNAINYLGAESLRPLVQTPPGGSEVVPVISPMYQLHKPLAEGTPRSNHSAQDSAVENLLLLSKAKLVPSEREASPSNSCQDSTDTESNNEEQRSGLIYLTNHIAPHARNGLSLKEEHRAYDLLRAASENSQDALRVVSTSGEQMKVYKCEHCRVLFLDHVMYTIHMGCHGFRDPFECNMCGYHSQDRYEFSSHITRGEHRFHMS
It gave 81.3% for remaining protein (SALL4; 0.04115 µM).
The remaining protein was 109% (GSPT1; 0.001524 µM).
CSNK1A1; 0.0005081 µM — remaining protein: 104%.
SALL4; 10 µM — remaining protein: 78.2%.
DNA-binding protein Ikaros; 0.0005081 µM — remaining protein: 103%.
It gave 109% for remaining protein (CSNK1A1; 1.111 µM).
The remaining protein was 101% (Zinc finger protein Aiolos (Homo sapiens, UniProt Q9UKT9); 0.001524 µM).
It gave 111% for remaining protein (GSPT1; 0.3704 µM).
SALL4; 0.0001694 µM — remaining protein: 100%.
The remaining protein was 109% (GSPT1; 0.04115 µM).
GSPT1; 0.0001694 µM — remaining protein: 105%.
For CSNK1A1; 3.333 µM: remaining protein read 104%.
The remaining protein was 99% (DNA-binding protein Ikaros; 0.3704 µM).

Block 4 — organism: Plasmodium berghei; mode: inhibitor; cells: Huh-7; strain: GFP-expressing, liver stage; concentration: 10 µM; time: 24 h; baseline: untreated control
`CC(CCc1ccccc1)NC(C)C(O)c1ccc(O)cc1` (centres unmarked) has an infection rate of 100%.
The infection rate of `C[C@@H]1O[C@@H](O[C@H]2C[C@@H](O)[C@]3(CO)[C@H]4[C@H](O)C[C@]5(C)[C@@H](C6=CC(=O)OC6)CC[C@]5(O)[C@@H]4CC[C@]3(O)C2)[C@H](O)[C@H](O)[C@H]1O` is reported as 47.6%.
The infection rate of `CC(C)CC(N(C)C)C1(c2ccc(Cl)cc2)CCC1` (centres unmarked) is reported as 96.1%.
`CCC(=O)O[C@H]1CC[C@H]2[C@@H]3CCC4=CC(=O)CC[C@]4(C)[C@H]3CC[C@]12C` has an infection rate of 87.7%.
With `O=c1[nH]c2ccccc2n1C1CCN(CCCC(c2ccc(F)cc2)c2ccc(F)cc2)CC1` the infection rate was 41.4%.
`CC(C)(N)Cc1ccccc1` has an infection rate of 14.6%.

A few entries again (block 2):
For `c1ccc(NNc2ccccc2)cc1`, the viability was 37%.
The viability of `C[C@@H](CO)NC(=O)[C@@H]1C=C2c3cccc4[nH]cc(c34)C[C@H]2N(C)C1` is reported as 115%.
For `Oc1cc(Cl)ccc1Oc1ccc(Cl)cc1Cl`, the viability was -1.04%.
